Measurements gathered from unrelated publications.
Every numbered part comes from another study and shows a few of its results, in no order. Positions count from the first letter of the parent shown.
UniProt P62837, sequence (whole entry, looked up): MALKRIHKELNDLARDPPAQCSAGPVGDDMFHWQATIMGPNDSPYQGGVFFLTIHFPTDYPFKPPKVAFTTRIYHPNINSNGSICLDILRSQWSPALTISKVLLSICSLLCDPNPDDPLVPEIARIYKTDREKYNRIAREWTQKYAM
UniProt Q712K3, sequence (whole entry, looked up): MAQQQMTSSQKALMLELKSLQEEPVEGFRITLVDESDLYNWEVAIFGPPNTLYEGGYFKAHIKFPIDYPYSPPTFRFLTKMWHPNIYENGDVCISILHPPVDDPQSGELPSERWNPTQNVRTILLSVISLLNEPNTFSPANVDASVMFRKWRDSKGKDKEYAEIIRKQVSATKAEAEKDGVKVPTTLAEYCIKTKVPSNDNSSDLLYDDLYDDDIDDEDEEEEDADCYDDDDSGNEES
UniProt Q9NPD8, sequence (whole entry, looked up): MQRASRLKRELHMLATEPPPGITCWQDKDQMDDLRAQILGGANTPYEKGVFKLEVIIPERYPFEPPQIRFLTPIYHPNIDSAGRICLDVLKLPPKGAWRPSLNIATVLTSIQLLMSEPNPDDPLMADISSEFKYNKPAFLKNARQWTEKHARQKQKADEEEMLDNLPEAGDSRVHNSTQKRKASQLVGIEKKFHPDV
UniProt Q9C0C9, sequence (whole entry, looked up): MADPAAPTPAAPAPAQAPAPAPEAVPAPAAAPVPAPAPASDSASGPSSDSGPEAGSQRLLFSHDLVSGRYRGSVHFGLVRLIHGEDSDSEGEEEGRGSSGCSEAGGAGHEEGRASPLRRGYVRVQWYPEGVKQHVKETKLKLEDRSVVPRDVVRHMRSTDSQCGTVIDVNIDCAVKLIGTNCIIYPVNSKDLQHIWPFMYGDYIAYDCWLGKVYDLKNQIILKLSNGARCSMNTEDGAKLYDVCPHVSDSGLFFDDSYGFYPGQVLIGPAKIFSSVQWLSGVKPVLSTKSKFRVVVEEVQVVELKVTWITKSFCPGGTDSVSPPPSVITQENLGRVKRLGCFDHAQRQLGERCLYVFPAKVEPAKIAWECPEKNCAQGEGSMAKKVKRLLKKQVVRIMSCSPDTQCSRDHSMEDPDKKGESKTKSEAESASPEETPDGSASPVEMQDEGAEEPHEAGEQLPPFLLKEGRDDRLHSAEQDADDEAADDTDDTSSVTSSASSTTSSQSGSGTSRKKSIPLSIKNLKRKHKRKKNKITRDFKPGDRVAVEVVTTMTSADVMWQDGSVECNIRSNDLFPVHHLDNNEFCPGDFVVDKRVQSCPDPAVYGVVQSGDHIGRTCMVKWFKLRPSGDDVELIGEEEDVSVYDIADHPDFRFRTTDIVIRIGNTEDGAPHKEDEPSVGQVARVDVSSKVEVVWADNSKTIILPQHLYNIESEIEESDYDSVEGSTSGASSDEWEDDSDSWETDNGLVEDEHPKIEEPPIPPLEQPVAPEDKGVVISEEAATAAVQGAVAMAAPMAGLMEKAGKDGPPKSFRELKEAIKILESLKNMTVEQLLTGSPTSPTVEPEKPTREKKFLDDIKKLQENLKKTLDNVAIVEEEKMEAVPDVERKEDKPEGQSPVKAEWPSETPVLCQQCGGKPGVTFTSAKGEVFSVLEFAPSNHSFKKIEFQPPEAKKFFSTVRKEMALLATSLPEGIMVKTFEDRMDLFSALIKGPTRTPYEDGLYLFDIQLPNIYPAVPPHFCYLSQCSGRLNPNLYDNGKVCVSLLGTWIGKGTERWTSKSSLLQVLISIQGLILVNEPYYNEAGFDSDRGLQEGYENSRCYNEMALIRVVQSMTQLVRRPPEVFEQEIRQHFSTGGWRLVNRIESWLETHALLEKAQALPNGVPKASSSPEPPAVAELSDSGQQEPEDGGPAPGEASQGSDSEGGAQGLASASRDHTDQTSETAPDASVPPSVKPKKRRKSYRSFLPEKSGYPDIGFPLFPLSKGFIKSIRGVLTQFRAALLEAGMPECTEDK

Study 1
Target: ABI1, truncated, D143A, DHFR fusion (Arabidopsis thaliana)
Technique: DHFR PCA, deep sequencing
Sample: yeast
Notes: methotrexate growth selection, single substitutions
Together with: (+)-ABA 200 µM
Relative to: wild-type fitted maximum
Reading: higher = stronger binding
Quantity: relative binding score
Starting sequence: PYL1, truncated, DHFR fusion (Arabidopsis thaliana); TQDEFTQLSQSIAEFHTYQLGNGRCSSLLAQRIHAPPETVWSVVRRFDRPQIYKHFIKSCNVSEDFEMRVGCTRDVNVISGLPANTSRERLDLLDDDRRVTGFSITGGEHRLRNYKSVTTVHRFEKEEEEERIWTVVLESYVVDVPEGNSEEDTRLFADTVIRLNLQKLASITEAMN
Y141F: 82%
D153A: 49.1%
L29V: 101%
D96H: 74%
Q167V: 88.8%
A158G: 67.1%
R88Y: 99.6%
D97M: 100%
R163M: 76.7%
H110R: -1.89%

Study 2
Target: RING finger protein unkempt homolog, zinc fingers 1-6, SBP tag (UNK, Homo sapiens, UniProt Q9C0B0, residues 30-357)
UniProt Q9C0B0, sequence (30-357, looked up): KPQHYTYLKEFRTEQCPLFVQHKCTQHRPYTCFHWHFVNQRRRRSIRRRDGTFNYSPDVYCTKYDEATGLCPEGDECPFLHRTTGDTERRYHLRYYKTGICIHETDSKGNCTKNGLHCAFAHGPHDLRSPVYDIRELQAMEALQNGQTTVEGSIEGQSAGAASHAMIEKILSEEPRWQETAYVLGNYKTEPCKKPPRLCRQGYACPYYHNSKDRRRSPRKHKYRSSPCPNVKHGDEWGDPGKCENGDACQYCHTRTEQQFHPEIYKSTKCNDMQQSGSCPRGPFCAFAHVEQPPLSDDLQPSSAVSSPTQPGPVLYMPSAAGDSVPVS
Technique: RNA Bind-n-Seq
Form: RNA
Sample: in vitro
Concentration: 100 nM
Notes: RNA with constant flanks, vertebrate orthologous sites, ends assumed
Relative to: input RNA pool
Reading: higher = stronger binding
Quantity: bound/input enrichment
Shared flanks, not repeated: GGGAGUUCUACAGUCCGACGAUC … CAACAGAGGAUUGAGCAUCA
AAUGGCCUCCAACAGGCAAAUUCAGGGAGAGAUAGGCUUCAGGGAAUAUAUAUUUAAGAGGAGUGAUCGUGAAGUAUAAGCUUGAUAUAACUGAAUAAUUUGUGAGGGGUGAUGACAUUU: 0.917 ratio
UUCAGGCUCAAUUGACUGUUUCACAGCAUUCCUUACACAGCUAUUUAACAAGUACAAGUGGAGUUAAUUUUCAGGAUACAUGUAGGCACUCAGCAUUAUCCUGCAGUCCAGUUGGAGAUG: 0.352 ratio
UGUGCUUAUACUCUUCUAGGGAAGAGAGGAAUUGGGGAAAACUGUCCCCUUCUUAUAGAUUAGCUUGUUUCUAAAUUAUGACCAAAAAAUAUUUUGCUAUUUCUUUCUUUAUAUAUGAAC: 1.43 ratio
CGGAGCAGUUGCCCAGUUCUGAGCACUCGCUACAGGGGUACUUUGGCCCAAGCGAUGAAGCAGAUGUGUCUUACCAGCAAGAUAAUAACAGCCCAGUGUCCAGCAGCCCCUCCACAACUG: 0.256 ratio
CUCCUCUUAAUCCCAUCUCAUCUGUUUCAUAGUGCUGAAAUUCUAUCUCCAGCCUAAUUUUUAGUGAACUUAUUCUAAUUCUAGAGAAACUUCCAGUGUGGAUACUGUGAGCUAUAUGGA: 2.03 ratio
UGGUUUGUACAGGGGCCUUCUCUGUACUAGUUAGUUGUGGUUAUAAAACAAUUAGCAAAACGGCUUACAUUUGUAUUUAUUUACUAUUCCAUACUUCUUCCCUGCCUCGUUUUUCUUUCU: 0.627 ratio
UAAUGUACUCUUAUUUAUUGAGGAUAGUUUUGUGCUGAGGAUUGUGCUAGACUUAAACUAAUGCUGAUGUUCUUCUUCGUUGUAUUGUUUCAUUCCUGGAAAUAAAAUUUUGUAUACAAA: 0.712 ratio
ACGCAUUUUGCAACUUGGAUGUGGUCUGCACAGGAAGCUGCUGGCCCCUCCACAACAACACAGAAAAUGUUUGUCUUUUUUUUUUUAAAGAUGUUAAAACUGAAUUGAAUUUACGAAAAA: 0.23 ratio
AAAACCCCGAUUUUAGAUGUGAUAUUUAGGUUUUCAUUCCAGUUUGUUUUGUUUUUUGUUUAGAUACCAAUCUUUUAAAUUCUUGCAUUUUAGUAAGAAAGCUAUCUUUUUAUGGAUGUU: 1.63 ratio
CUACUAUAAACAACUCAGGGCAGUAUUCUCGAUAUCCUUACAGUAACCUAAAUCAGGGAUUAGUUAACAAUACAGGGAUGAAUCAAAAUUUAGGCCUUACAAACAAUACUCCAAUGAAUC: 1.3 ratio
UACCUAACCCCAAAGCUGGACUUUUGUUUAAUAGUUGCGUCACCACCACUGCUUUAAUUAGCAAUAUUAAAGUAAGAGUAAAUAUUACAGUAAUACGUCUUGCUCGUUGUUUCACGAGCC: 0.611 ratio

Study 3
Sequence: B1 (DTX2 RING domain)
Technique: yeast two-hybrid
Sample: yeast
Notes: mostly zero background
Relative to: not given
Reading: higher = stronger interaction
Quantity: lacZ reporter activity
B1: DTX2 RING domain (UniProt Q86UW9); chain EELKVPPDEDCIICMEKLSTASGYSDVTDSKAIGSLAVGHLTKCSHAFHLLCLLAMYCNGNKDGSLQCPSCKTIYGEKTGTQ
UBE2T UBC core domain (UniProt Q9NPD8): 0
BIRC6 UBC core domain (UniProt Q9NR09): 0
UBE2D2 UBC core domain (UniProt P62837): 0
UBE2O UBC core domain (UniProt Q9C0C9): 0
UBE2R2 UBC core domain (UniProt Q712K3): 0

Study 4
Target: CCNA2, cyclin fold, Cln2 fusion (human)
Technique: yeast growth competition, sequencing
Sample: yeast
Notes: strong parent motif
Relative to: not given
Reading: higher = stronger binding
Quantity: normalised enrichment score
Starting sequence: CDC6 docking peptide (human); TLKGRRLVFDNQL; partner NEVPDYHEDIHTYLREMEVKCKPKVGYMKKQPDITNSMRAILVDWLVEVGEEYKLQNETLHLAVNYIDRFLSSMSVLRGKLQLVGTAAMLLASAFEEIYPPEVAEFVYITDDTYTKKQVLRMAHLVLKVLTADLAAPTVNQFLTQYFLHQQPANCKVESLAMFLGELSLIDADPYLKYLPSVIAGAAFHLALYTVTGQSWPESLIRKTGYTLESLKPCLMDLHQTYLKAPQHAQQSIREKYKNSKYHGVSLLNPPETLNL
L13P: 3.7
Q12P: 3.04
G4H: 1.82
G4W: 1.71
F9S: 1.15
L2W: 3.11
K3V: 3.74
F9R: 0.442
V8Q: 2.04
D10T: 1.92
L7W: 1.77
V8M: 2.32
D10E: 1.81
V8Y: 2.81
F9I: 0.823
L2H: 2.94
N11Y: 2.84
V8L: 2.8
Q12M: 3.92
R5Q: -0.273

Study 5
Target: Centromere-binding protein 1, full length, N-terminal tag (CBF1, Saccharomyces cerevisiae, UniProt P17106, residues 1-351)
UniProt P17106, sequence (whole entry, looked up): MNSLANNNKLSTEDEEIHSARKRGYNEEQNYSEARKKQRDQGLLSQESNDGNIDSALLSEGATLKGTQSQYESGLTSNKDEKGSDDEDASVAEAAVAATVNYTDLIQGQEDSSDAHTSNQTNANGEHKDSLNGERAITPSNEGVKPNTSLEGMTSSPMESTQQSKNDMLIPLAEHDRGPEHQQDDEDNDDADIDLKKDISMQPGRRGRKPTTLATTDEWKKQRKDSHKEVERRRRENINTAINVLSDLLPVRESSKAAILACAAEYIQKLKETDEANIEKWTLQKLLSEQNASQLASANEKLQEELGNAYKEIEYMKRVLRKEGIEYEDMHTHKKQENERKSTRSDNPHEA
Technique: protein-binding microarray
Form: double-stranded DNA, one strand shown
Sample: in vitro
Concentration: 0.8 µM
Notes: whole 60-bp probe, no competitor
Reading: higher = stronger binding
Quantity: fluorescence intensity
Shared flanks, not repeated: … GTCTTGATTCGCTTGACGCTGCTG
GAATCCCAAGCAATAAACGTGAAATCTGTTTTGTAG: 558 a.u.
GAAATATGTTGATGCCACGTAAATAATATGTGTTAG: 500 a.u.
GAATAAAGCAAATCTCACATGAAAACGCTGAAATAG: 554 a.u.
GAACATATATATGATCACATATATATTTCTGTGTAG: 584 a.u.
CTAATCGAAGCACGTGATCAGTTTTCCACATCCTTC: 28100 a.u.
CTAAAGGAAGAGGACCACACCATGCATTTGTGTTTC: 492 a.u.
GAATAATGAATCTGTGACCTTTCTTTGCTATAGTAG: 584 a.u.
GAATTTTCCGAAAGTCATGACACAAGGGAAGGATAG: 643 a.u.
CTACATTCGAACTAAAACATCAGCCCCAAAAATTTC: 510 a.u.
CTACAAACTCCCCACCTGACAATGTCTTCAACCTTC: 737 a.u.
CTAATGACACTATTAAACGTGACGGTGCTGCTGTTC: 890 a.u.
CCTAACTACTATAATCACGAACCATAGCTTCGTACA: 589 a.u.
GAAAGCGATGAGATGATCATTTCTTATAGGGATTAG: 493 a.u.
GAACTTTGCTCTGGTCACACTAAATAATCGCGCTAG: 629 a.u.
CTATCATCAAAACCCCACGTAATGTTTGTTCTCTTC: 546 a.u.
CTATAAAACAACACTCACGTAATAAAAAATCCTTTC: 539 a.u.
GAATTGAGCAAAGAGCACGTTGCGAATACGTTTTAG: 602 a.u.
CTATTGAATTTTCGTCTCCTGTTATACGAATATTTC: 522 a.u.
GAAAGTTGACTAGTACACGCAACGAAATACTAATAG: 528 a.u.
GAAGACAGAGATGTGCATGTTGACAACGCAGGCTAG: 496 a.u.
GAAGTTGAATAAGGCCATGTGACACGGGTTTCTTAG: 3520 a.u.

Repeated from above (study 2):
UGUGCUUAUACUCUUCUAGGGAAGAGAGGAAUUGGGGAAAACUGUCCCCUUCUUAUAGAUUAGCUUGUUUCUAAAUUAUGACCAAAAAAUAUUUUGCUAUUUCUUUCUUUAUAUAUGAAC: 1.43 ratio
AAAACCCCGAUUUUAGAUGUGAUAUUUAGGUUUUCAUUCCAGUUUGUUUUGUUUUUUGUUUAGAUACCAAUCUUUUAAAUUCUUGCAUUUUAGUAAGAAAGCUAUCUUUUUAUGGAUGUU: 1.63 ratio
AAUGGCCUCCAACAGGCAAAUUCAGGGAGAGAUAGGCUUCAGGGAAUAUAUAUUUAAGAGGAGUGAUCGUGAAGUAUAAGCUUGAUAUAACUGAAUAAUUUGUGAGGGGUGAUGACAUUU: 0.917 ratio
CUCCUCUUAAUCCCAUCUCAUCUGUUUCAUAGUGCUGAAAUUCUAUCUCCAGCCUAAUUUUUAGUGAACUUAUUCUAAUUCUAGAGAAACUUCCAGUGUGGAUACUGUGAGCUAUAUGGA: 2.03 ratio
